Results collected from several papers.
Numbered parts are unrelated; each lists some results of a single study.

Set 1 — method: universal PBM; molecule type: double-stranded DNA, one strand shown; matrix: in vitro; concentration: not given; direction: higher = stronger binding
Target: Sal-like protein 4, full length isoform B (SALL4, Homo sapiens, UniProt Q9UJQ4-2, residues 1-616)
Notes: 8-mer, flanks averaged, mean of replicates
Residues (chain): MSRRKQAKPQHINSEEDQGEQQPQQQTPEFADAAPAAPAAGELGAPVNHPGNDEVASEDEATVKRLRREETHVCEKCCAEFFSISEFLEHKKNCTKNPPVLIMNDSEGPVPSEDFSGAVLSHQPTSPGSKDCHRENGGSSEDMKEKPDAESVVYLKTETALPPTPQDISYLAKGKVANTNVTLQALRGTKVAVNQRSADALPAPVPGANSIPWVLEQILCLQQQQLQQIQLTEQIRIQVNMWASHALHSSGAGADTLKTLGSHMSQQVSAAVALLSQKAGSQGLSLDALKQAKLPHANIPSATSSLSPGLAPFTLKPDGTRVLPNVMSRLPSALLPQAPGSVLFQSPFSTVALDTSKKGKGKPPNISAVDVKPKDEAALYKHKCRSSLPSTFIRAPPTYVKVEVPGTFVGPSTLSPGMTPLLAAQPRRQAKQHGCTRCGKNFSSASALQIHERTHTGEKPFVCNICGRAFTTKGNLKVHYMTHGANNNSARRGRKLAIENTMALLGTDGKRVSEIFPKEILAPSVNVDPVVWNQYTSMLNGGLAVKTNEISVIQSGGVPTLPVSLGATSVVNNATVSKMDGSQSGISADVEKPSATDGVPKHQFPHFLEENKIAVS
Sequence | E-score
CGGTGCAA | -0.143
AAGGGAAA | 0.228
TAGGACGA | -0.0503
ATGTACGC | 0.0767
TCTTCCCA | -0.197
TATCCGCA | 0.16
CTGGCCAG | -0.249
GACTGAAA | 0.0472
CGTGGGGC | -0.32
ATCTCAAG | 0.00237
ATGAGCGA | -0.0265
AAGCATAC | 0.312
AAATTACC | 0.214
ATCGGTCG | -0.125
GCGCGAGA | -0.0858
AGTCCGTC | -0.127
ATTGGGGA | -0.0806
CAACACGA | -0.00915
CTGACATA | 0.184

Set 2 — method: protein binding microarray; molecule type: double-stranded DNA, one strand shown; matrix: in vitro; concentration: not given; baseline: not given; direction: higher = stronger binding
Target: Histone acetyltransferase KAT6A, winged helix 2, GST fusion (KAT6A, Homo sapiens, UniProt Q92794, residues 85-181)
Notes: 8-mer, flanks averaged, mean of 2 arrays, mostly near background
Target sequence (chain): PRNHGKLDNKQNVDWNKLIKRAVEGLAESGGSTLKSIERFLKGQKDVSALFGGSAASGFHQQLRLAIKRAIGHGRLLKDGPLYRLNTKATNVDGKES
Sequence | E-score
CTCGGCCC | 0.28
GACTTGAC | -0.163
GAATTACA | 0.0585
CGCAACGC | 0.177
GCTACCCA | -0.136
ACGTCCGC | 0.00176
CGTCCGAG | 0.0112
TGGCTCAA | -0.112
CCTCACAA | -0.0136
CGCAACCA | 0.102
AGCAGTAT | 0.0584
CAACGGTA | -0.266
GGGATCCC | 0.156
CCCTCTGC | 0.156
GGATGTCA | 0.0294
CAGGTCCC | 0.179
CGTCTGTC | 0.0187
GAAAAGGA | -0.0196

Set 3 — method: RNA Bind-n-Seq; molecule type: RNA; matrix: in vitro; concentration: 365 nM; baseline: no-protein control; direction: higher = stronger binding
Target: RNA binding protein fox-1 homolog 2, RRM domain, GST-SBP tag (RBFOX2, Homo sapiens, UniProt O43251-10, residues 100-194)
Notes: natural RNA segment, single round, ends assumed
Residues (chain): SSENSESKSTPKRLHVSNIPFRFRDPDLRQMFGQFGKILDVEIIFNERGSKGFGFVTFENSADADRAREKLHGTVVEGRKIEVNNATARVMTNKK
Sequence | RBNS enrichment (R)
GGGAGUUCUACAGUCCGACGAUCCGCAGCUUCUCCAGGAACCCCUCAGAUGCAAGGCAACCCCACUAUGGUGCCCCUGCCCCCCGGGGUCCAGCCGCCUCUGCCGCCCGGGGCCCCUCCCCCUCCGCCGCCUCUGGAAUUCUCGGGUGCCAA | 0.401
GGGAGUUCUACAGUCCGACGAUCAUUAUUAGAUCCACACAGAAGGAGCUCAGUAUUUAGUCCUUUGUUUUUAUUCAGUGAGAACCAAGCUAGCCUUGAGUAAUUUUUAUCUUGUCUUCCUAAAACACUAUUAAUGGAAUUCUCGGGUGCCAA | 0.858
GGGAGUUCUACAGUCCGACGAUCCCUAAGCCAGCUGCCCCCAGAGCCACAGUUCCCCUAUGUGGAAGUGGGGCGGGCUUCAUAGAGACUUGGGAAUGAGCUGAAGGUGAAACAUUUUCUCCCUGGAUUUUUACUGGAAUUCUCGGGUGCCAA | 1.47
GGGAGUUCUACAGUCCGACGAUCGAUUUUGUUUUCUACCCUUCAAGGUAAACAUUAAAAAUAAGGUGGUACUUGUGUACUUGUACAUAAAACCAAAAUUAUAGUUGGGAAAAAAAUAAAUUUAUAUAUGAAAAUGGAAUUCUCGGGUGCCAA | 0.581
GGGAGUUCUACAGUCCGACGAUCCUUUUUUAAGUGAUGCAGACCUUAGUUUCUUUAGCCCCUUUAUUUUGAAUACAAUGCUACAUAUGAAUGUUGAAGCUGAUACAUUGCACAGUUCUGUAGACAUCACUACAUGGAAUUCUCGGGUGCCAA | 1.32
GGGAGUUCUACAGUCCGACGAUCCUGGAGCCUGGCAGCCACAGACAUCAUACACAGCCUCUGAAGCUUAUUAAAGUAUGUUCACCCACUGGAUGAAAGGCUCUGUGCAGAGAGGGGAGGAACUGGGCCCUUGCUGGAAUUCUCGGGUGCCAA | 0.735
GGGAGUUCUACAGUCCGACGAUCGUAGUCUUAAUAGUUUUGAAUGUUGACUGAAUGUCUAUAAAAUUGUGAGUUUGUCUUUGUUACAUUCCAGUGUUUCUGCCUCUUGGCAUGCUUAAAGCACGGCUUACUUCUGGAAUUCUCGGGUGCCAA | 6.39
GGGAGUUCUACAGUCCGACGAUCGAGGCCGAGGCAGGUGGAUCGCCUGAGCUCAGGAGUUCAAGACCAGCCUGGGCAACAUGGCAAAACCCCGUCUCUACUAAAAAUACAAAAAAUUAGCUGGGUGUGGUGGUUGGAAUUCUCGGGUGCCAA | 0.293
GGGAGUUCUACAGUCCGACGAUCAUUAACCCCACAGAACUAGCAUUUUCUAAAGUAUGUAAUCUGUUAAUUUUUAACCAGAUAAGGCUUUCUAUGCAUCCACAGGUGCCUUUGUUUUAACUGUGGAUUUAUUGUGGAAUUCUCGGGUGCCAA | 0.759
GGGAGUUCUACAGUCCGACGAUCUGUAAUUUUAGAUCGGGAAGAGAGUGUGUGUCUAAUUCUUUUGAGUAUGCCUGUGCCAUCAGAGAAGAGAUCCCACCCCAGUAGGAAGGUAUGGGGCAGUCCAGUUUAUAUGGAAUUCUCGGGUGCCAA | 1.75
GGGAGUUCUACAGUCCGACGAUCUUCAACGCUCUGUCCUCUGAGGAGUGUUGUGUCUGAUUUUAUUUUAAAAGUUCACGGUAUGAGAGUUAGUGCUUCUUCCCAAUUUGACCGUUGUAUAUUUUUGGAAACGUUGGAAUUCUCGGGUGCCAA | 0.51
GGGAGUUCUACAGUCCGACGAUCGCUUCUGAACACUGCUUUCCACACAAGCACGGGCAAGUCCCCUUUACCCUUGGAUCAGCCAAGCCAGACUUGGAGCUUUGACAAGGAACGUUCCCGGGAAACGACCAAACUGGAAUUCUCGGGUGCCAA | 0.249

Set 4 — method: RNAcompete; molecule type: RNA; matrix: in vitro; concentration: 20 nM; notes: 7-mer, probes averaged, single round; baseline: mean of 7-mers; direction: higher = stronger binding
Target: PABPC1L2, full length, GST fusion (mouse, UniProt A0ABA7IW68)
Target sequence (chain): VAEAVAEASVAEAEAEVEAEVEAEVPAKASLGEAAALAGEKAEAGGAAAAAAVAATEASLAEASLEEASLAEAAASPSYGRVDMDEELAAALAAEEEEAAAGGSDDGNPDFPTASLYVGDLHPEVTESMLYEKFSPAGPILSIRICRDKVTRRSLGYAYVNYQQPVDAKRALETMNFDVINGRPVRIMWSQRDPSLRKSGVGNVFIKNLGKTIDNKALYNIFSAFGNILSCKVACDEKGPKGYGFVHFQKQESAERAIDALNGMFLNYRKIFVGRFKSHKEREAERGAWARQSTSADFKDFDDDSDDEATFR
Sequence | 7-mer Z-score
AGUUCCA | -0.135
CCAUCAA | 0.000733
AUCUCAA | -0.146
CUGCGUU | -0.364
AAGGGAA | 0.466
AUAUUUA | 0.0116
AUAAAUG | 1.4
CAUGGGA | 0.138
ACUACAG | 0.0207
GAGUAAU | -0.186
CAAGGUG | 0.0515
GACGCUC | -0.219
CAACCCU | -0.141
CACGCUC | -0.246
CAUGGCU | -0.213
UCGGCAC | -0.179
GGACUAU | 0.095
CCUCCCA | -0.349
CCCUGUA | -0.244
CCUCAUA | -0.204
AGAGUCA | -0.22
CAGGACG | -0.0283

Set 5 — method: protein-binding microarray; molecule type: double-stranded DNA, one strand shown; matrix: in vitro; concentration: 940 nM top; notes: 60-bp whole probe; with: salmon DNA 0.4 mg/ml; baseline: random background probes; direction: higher = stronger binding; constant ends, left off below: GCCTAGCAC … GTCTTGATTCGCTTGACGCTGCTG
Target: Interferon regulatory factor 5, full length, phosphomimetic (IRF5, Homo sapiens, UniProt Q13568-2, residues 1-514, S451D/S453D/S456D/S462D)
Sequence | fitted relative affinity
TCAATTTTTACCCTCCTACTGTGCTAG | 1.21 z-score
TTAGGTTTCTTTTCCCTTTAGTGCTAG | 3.31 z-score
GACGGACTGCCACTGCTGACGTGCTAG | -0.883 z-score
TTAGATTCCAGTTTCGAATAGTGCTAG | 3.96 z-score
TCAGATTTACAAACTGTGACTGTGCTA | 0.00132 z-score
TCTCTTTCCACTTGTCTTTTCGTGCTA | 3.73 z-score
GACGAACAGAGTCTCGAGACGTGCTAG | 0.186 z-score
TTAGAACTGAGACTGGATTCGTGCTAG | 0.103 z-score
GACCATTTCGGGTTTCGAGACGTGCTA | 2.16 z-score
TTAGTTATCGGTTTCGGTTAGTGCTAG | 8.77 z-score
TTAGGACTGGGGACTGGGTTCGTGCTA | -0.289 z-score
TTAGGACTGGCCACTGGGTTAGTGCTA | -0.421 z-score
GACGATTTCGGGTTTCGTGACGTGCTA | 1.11 z-score
CCTAGTTTTACTTTCTATCTGTGCTAG | 2.45 z-score
TACGGTATCGACTATCGGGACGTGCTA | 4.67 z-score
GACGGAATGGGGTATCGGGACGTGCTA | 0.906 z-score

Set 6 — method: protein-binding microarray; molecule type: double-stranded DNA, one strand shown; matrix: in vitro; concentration: not given; direction: higher = stronger binding
Target: Transcription factor SOX-2, HMG box (SOX2, Homo sapiens, UniProt P48431, residues 19-118)
Sequence of UniProt P48431 (19-118, looked up): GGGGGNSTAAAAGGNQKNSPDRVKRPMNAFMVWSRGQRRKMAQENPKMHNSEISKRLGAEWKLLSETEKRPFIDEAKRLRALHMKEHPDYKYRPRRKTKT
Notes: k-mer, scored over probes, only values ≥0.25
Sequence | E-score
ATTTACA | 0.303
CATTGAA | 0.364
AATTTAC | 0.251
ACATTAT | 0.378
CAATTGA | 0.414
AATCAAA | 0.284
AATGAAG | 0.252
ATACAAT | 0.458
TAATAGA | 0.354
CTATGAA | 0.272
AATACTA | 0.325
AATGGAA | 0.308
GACAAAA | 0.339
ATAAATA | 0.334
GTATTCA | 0.357
GTCAATA | 0.39
ATAACAA | 0.417
AAAGGGA | 0.274
CACAAAA | 0.264
ATGAAAA | 0.277
CGCACAA | 0.264

Excerpt of the above (set 4):
Sequence | 7-mer Z-score
AUCUCAA | -0.146
CACGCUC | -0.246
GAGUAAU | -0.186
CAUGGCU | -0.213
CAGGACG | -0.0283
CCCUGUA | -0.244
AAGGGAA | 0.466
AGAGUCA | -0.22
ACUACAG | 0.0207
GGACUAU | 0.095
CUGCGUU | -0.364
CAACCCU | -0.141
UCGGCAC | -0.179
CAUGGGA | 0.138
CAAGGUG | 0.0515
